Measurements collected from several papers.
Each numbered part is a random draw from the data of one study; scales do not carry over between parts. “And” joins repeats or separate records; there may be more than shown.
UniProt P31645, sequence (whole entry, looked up): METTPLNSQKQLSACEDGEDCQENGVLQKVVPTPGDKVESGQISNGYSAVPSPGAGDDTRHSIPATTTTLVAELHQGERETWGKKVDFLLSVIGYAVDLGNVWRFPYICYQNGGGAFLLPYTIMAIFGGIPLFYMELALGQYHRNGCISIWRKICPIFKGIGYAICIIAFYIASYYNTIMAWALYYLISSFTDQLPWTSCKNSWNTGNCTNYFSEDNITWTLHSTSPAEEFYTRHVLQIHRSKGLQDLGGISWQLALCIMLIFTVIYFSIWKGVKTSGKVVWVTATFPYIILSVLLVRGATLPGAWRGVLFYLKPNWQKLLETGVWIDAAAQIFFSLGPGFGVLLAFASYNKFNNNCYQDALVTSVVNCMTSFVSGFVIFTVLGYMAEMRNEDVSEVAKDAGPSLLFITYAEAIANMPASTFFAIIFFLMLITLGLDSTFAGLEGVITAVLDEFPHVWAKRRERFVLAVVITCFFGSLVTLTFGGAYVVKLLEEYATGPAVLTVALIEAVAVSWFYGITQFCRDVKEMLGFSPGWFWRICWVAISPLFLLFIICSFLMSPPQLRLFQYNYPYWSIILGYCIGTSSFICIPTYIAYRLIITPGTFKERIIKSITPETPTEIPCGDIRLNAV

Series 1 — cell line: HEK-293T-ACE2-TMPRSS2; method: cell count; tested at: concentration not given
`CCc1nc(-c2ccc(N3CCN(C(=O)Cc4ccc(OC)c(OC)c4)CC3)cc2)no1` gave a viability of 76%.
The viability of `COc1cccc(Oc2ccc(NC(=O)c3cc4cc(Br)ccc4o3)cn2)c1` is reported as 76%.
`Cc1ccc(S(=O)(=O)c2ccc(C(=O)NC3CCN(Cc4ccccc4)CC3)cn2)cc1C` gave a viability of 81%.
`Cc1cc2c3c([nH]c2cc1S(=O)(=O)N1CCN(Cc2ccccc2)CC1)CCCC3=O` has a viability of 79%.

Series 2 — method: CCK-8
Structure (SMILES): CC(C)S(=O)(=O)c1ccc2nccc(Nc3ccc4sc(C5CCCC5)nc4c3)c2c1.Cl
L929 RIPK3-/- reexpressing RIPK3 K51A; 1.563 µM — survival: 94.6% and 96% and 91.4% and 97.5%.
For L929 RIPK3-/- reexpressing RIPK3 K51A; 3.125 µM, together with: zVAD: survival read 97.3% and 97.9% and 96.3% and 100% and 96.8%.
The survival was 108% and 96.6% and 101% and 93.5% (L929 RIPK3-/- reexpressing RIPK3 K51A; 12.5 µM, together with: zVAD).
L929 RIPK3-/- reexpressing RIPK3 K51A/R69H; 1.563 µM — survival: 99.6% and 92.6% and 88.2% and 82.5%.
For L929 RIPK3-/- reexpressing RIPK3 K51A; 1.563 µM, together with: zVAD: survival read 97.6% and 98.7% and 96.5% and 98.3%.

Further values, each from its own experiment
`O=C1N=C(O)N=C(O)C1C1c2ccccc2Oc2nc(O)nc(O)c21` (stereo not drawn) gave a remaining compound of 98.7% (human, microsomes or S9; 2 µM, 0.5 h).
The inhibition of `O=C(NS(=O)(=O)c1ccc(NCC2CCOCC2)c([N+](=O)[O-])c1)c1ccc(N2CCN(Cc3ccc(C(F)(F)F)cc3-c3ccc(Cl)cc3)CC2)cc1Oc1cnc2[nH]ccc2c1` is reported as -8.19% (SLC6A4 (Homo sapiens, UniProt P31645); ligand displacement; 10 µM).
The remaining compound of `COC1=CC=C2C3Cc4ccc(OC)c5c4C2(CCN3C)C1O5` (stereo not drawn) is reported as 82.9% (human, microsomes or S9; 2 µM, 0.5 h).

Some of these lines once more (series 2):
For L929 RIPK3-/- reexpressing RIPK3 K51A; 1.563 µM, together with: zVAD: survival read 97.6% and 98.7% and 96.5% and 98.3%.
